Measured values pooled from the literature.
Parts stem from different laboratories: compare values within a part only. Changes are numbered by the printed parent chain.

Series 1 — technique: protein-binding microarray; molecule type: double-stranded DNA, one strand shown; medium: in vitro; tested at: 2200 nM top; notes: 60-bp whole probe; with: salmon DNA 0.4 mg/ml; reference: random background probes; direction: higher = stronger binding; constant ends, left off below: GCCTAGCAC … GTCTTGATTCGCTTGACGCTGCTG
Target: Interferon regulatory factor 7, full length, phosphomimetic (IRF7, Homo sapiens, UniProt Q92985, residues 1-503, S471D/S472D/S475D/S476D/S477D/S483D/S484D/S487D)
Construct (chain): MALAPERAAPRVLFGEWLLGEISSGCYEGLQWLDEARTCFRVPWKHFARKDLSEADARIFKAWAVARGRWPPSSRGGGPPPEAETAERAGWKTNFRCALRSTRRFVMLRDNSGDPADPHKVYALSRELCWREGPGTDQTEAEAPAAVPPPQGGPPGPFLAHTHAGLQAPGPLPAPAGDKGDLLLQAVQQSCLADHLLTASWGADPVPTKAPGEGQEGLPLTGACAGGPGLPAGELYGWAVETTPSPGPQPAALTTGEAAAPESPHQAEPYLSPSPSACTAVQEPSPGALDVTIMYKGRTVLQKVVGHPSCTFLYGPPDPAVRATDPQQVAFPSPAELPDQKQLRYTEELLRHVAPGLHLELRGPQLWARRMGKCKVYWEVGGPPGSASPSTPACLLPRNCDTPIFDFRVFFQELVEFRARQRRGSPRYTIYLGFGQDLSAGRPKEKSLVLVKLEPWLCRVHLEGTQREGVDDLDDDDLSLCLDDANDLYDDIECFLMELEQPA
Sequence | fitted relative affinity [z-score]
GACGGTATGGGGACTGGGGACGTGCTA | -0.0545
AACTCTTTGCAGATAAATACGTGCTAG | 0.26
GTTTGTCCCTATTTAAGATAGTGCTAG | 1.93
ACTTTTTTCTGATTGAATCTGTGCTAG | 3.36
GACGGTATCCTTTCCCTGACGTGCTAG | 1.38
TTTTTTTTTTACTTCGGGTGGTGCTAG | 1.99
GACGGTCTCCTACTGCTGCCGTGCTAG | 0.193
TCTGGGCCTCCATCATCTGTGTGCTAG | -0.394

Series 2 — technique: universal PBM; molecule type: double-stranded DNA, one strand shown; medium: in vitro; tested at: not given; direction: higher = stronger binding
Target: Sal-like protein 4, full length isoform B (SALL4, Homo sapiens, UniProt Q9UJQ4-2, residues 1-616)
Notes: 8-mer, flanks averaged, mean of replicates
Sequence | E-score
GGACATAA | 0.199
AGTCCATG | -0.0892
CGGCAAAG | -0.232
AGAAGGTG | 0.0161
CAACATGC | 0.0615
GAGTCGAA | -0.101

Series 3 — target: CCNE1, cyclin fold, Cln2 fusion (human); technique: yeast growth competition, sequencing; medium: yeast; notes: strong parent motif; reference: not given; direction: higher = stronger binding
Starting sequence: RBL1 docking peptide (human); GSAKRRLFGEDPP
Substitution | normalised enrichment score
E10H | 5.56
P12Q | 6.15
P13G | 5.76
K4C | 5.09
R5D | 0.476
R5K F8L | -0.00477

Other studies, line by line
Molecule | target | assay | test system | conditions | scale | quantity | value
PhoQ, residues 284 288 289 292 302 303 NSMLDC | PhoP, residues 12 14 15 18 19 HLGGL (Escherichia coli, UniProt P23836) | Sort-seq, item: YFP reporter | E. coli | PhoQ-PhoP variant library, with: 10 µM Mg2+ | reference: high Mg2+ state, higher = stronger signaling | fold induction | 15.2

Excerpt of the above (series 1):
Sequence | fitted relative affinity [z-score]
GACGGTATCCTTTCCCTGACGTGCTAG | 1.38
TTTTTTTTTTACTTCGGGTGGTGCTAG | 1.99
GACGGTCTCCTACTGCTGCCGTGCTAG | 0.193
